Measurements collected from several papers.
Compare with care: the assays were run in different laboratories. ± gives the spread as reported.

| SMILES | organism | effect on | method | cell line | strain | time | EC50 |
| --- | --- | --- | --- | --- | --- | --- | --- |
| COc1cc(-c2oc3cc(O)cc(O)c3c(=O)c2O[C@@H]2O[C@H](CO[C@@H]3O[C@@H](C)[C@H](OC(C)=O)[C@@H](O)[C@H]3OC(C)=O)[C@@H](O)[C@H](O)[C@H]2O)ccc1O | Influenza A virus | viral replication |  | MDCK | A/Tern/South Africa/1/61(H5N3) |  | 70600 ± 760 nM |
| CC(NC(=O)NNS(=O)(=O)c1ccc(OC(F)F)cc1)(C(F)(F)F)C(F)(F)F | Mammarenavirus machupoense | viral replication |  | Vero |  |  | 300 nM |
| CC[C@H](C)[C@H](NC(C)=O)C(=O)N[C@@H](CCC(=O)O)C(=O)N[C@@H](CCC(=O)O)C(=O)N[C@H](C(=O)N[C@@H](CCC(N)=O)C(=O)N[C@@H](CCCCN)C(=O)N[C@@H](CCCCN)C(=O)N[C@H](C(=O)N[C@@H](CCC(=O)O)C(=O)N[C@@H](CCC(=O)O)C(=O)N[C@H](C(=O)N[C@@H](CCC(N)=O)C(=O)N[C@@H](CCCCN)C(=O)N[C@@H](CCCCN)C(=O)N[C@H](C(=O)N[C@@H](CCC(=O)O)C(=O)N[C@@H](CCC(=O)O)C(=O)N[C@H](C(=O)N[C@@H](CCC(N)=O)C(=O)N[C@@H](CCCCN)C(=O)N[C@@H](CCCCN)C(=O)N[C@H](C(=O)N[C@@H](CCC(=O)O)C(=O)N[C@@H](CCC(=O)O)C(=O)N[C@H](C(=O)N[C@@H](CCC(N)=O)C(=O)N[C@@H](CCCCN)C(=O)N[C@@H](CCCCN)C(=O)N[C@H](C(=O)N[C@@H](CCC(=O)O)C(=O)N[C@@H](CCC(=O)O)C(=O)N[C@H](C(=O)N[C@@H](CCC(N)=O)C(=O)N[C@@H](CCCCN)C(=O)N[C@@H](CCCCN)C(=O)NCCC(=O)N[C@@H](CCCCNC(C)=O)C(N)=O)[C@@H](C)CC)[C@@H](C)CC)[C@@H](C)CC)[C@@H](C)CC)[C@@H](C)CC)[C@@H](C)CC)[C@@H](C)CC)[C@@H](C)CC)[C@@H](C)CC | MERS-CoV pseudovirus | viral entry |  |  |  |  | > 40000 nM |
| COc1cc(-c2oc3cc(O[C@@H]4O[C@@H](C)[C@H](O)[C@@H](O)[C@H]4O)cc(O)c3c(=O)c2O[C@@H]2O[C@H](COC(=O)c3cc(O)c(O)c(O)c3)[C@@H](O)[C@H](O)[C@H]2OC(=O)c2cc(O)c(O)c(O)c2)ccc1O | Influenza A virus | viral replication |  | MDCK | A/Tern/South Africa/1/61(H5N3) |  | 161600 ± 570 nM |
| CC(=O)c1ccc2c(c1)N(CCCN(C)C)c1ccccc1S2 | SARS coronavirus |  |  | Vero 76 | Urbani |  | 21000 ± 11000 nM |
| Nc1ccn(C[C@@H](CO)OCP(=O)(O)OCCCS(=O)(=O)CCCCCCCCCCCCC2CCC2)c(=O)n1 | vaccinia virus | viral replication |  | HFF | Copenhagen |  | 25800 nM |
| CCOC(=O)[C@@H](C)NP(=O)(CO[C@H](CF)CN1CNC(N)=NC1=O)N[C@H](C)C(=O)OCC | Vaccinia virus | viral replication |  | HEL |  |  | > 100000 nM |
| Oc1cccc(O)c1-c1c2nc(c(-c3c(O)cccc3O)c3ccc([nH]3)c(-c3c(O)cccc3O)c3nc(c(-c4c(O)cccc4O)c4ccc1[nH]4)C=C3)C=C2 | vaccinia virus | extracellular enveloped virus |  | CV-1 | IHD-J |  | 0.7 ± 0.2 µg/mL |
| CC(=O)OC1(C)CC(C=C(C)CCC=C(C)C)OC2(C=C(CO)C3CC(=O)C(C)=CC3O2)C1 (centres unmarked) | SARS-CoV-2 Omicron BA.5 | viral replication | dsRNA staining | Calu-3 |  |  | 700 nM |
| O=S(=O)(O)c1cccc(-c2c3nc(c(-c4cccc(S(=O)(=O)O)c4F)c4ccc([nH]4)c(-c4cccc(S(=O)(=O)O)c4F)c4nc(c(-c5cccc(S(=O)(=O)O)c5F)c5ccc2[nH]5)C=C4)C=C3)c1F | vaccinia virus | viral replication |  | CV-1 | Western Reserve |  | 1.3 ± 0.3 µg/mL |
| CONC(=O)[C@H]1[C@@H](O)[C@@]2(O)c3c(OC)cc(OC)cc3O[C@@]2(c2ccc(OC)cc2)[C@@H]1c1ccccc1 | Lassa virus | viral replication |  | mouse hepatocytes |  |  | 36.1 nM |
| O=S(=O)(O)c1c2ccccc2c(-c2c3nc(c(-c4c5ccccc5c(S(=O)(=O)O)c5ccccc45)c4ccc([nH]4)c(-c4c5ccccc5c(S(=O)(=O)O)c5ccccc45)c4nc(c(-c5c6ccccc6c(S(=O)(=O)O)c6ccccc56)c5ccc2[nH]5)C=C4)C=C3)c2ccccc12 | vaccinia virus | extracellular enveloped virus |  | CV-1 | IHD-J |  | 0.2 ± 0.1 µg/mL |
| CCCCCCCCCC(=O)OCC1OC(n2cc(C)c(=O)[nH]c2=O)CC1N(C)C (centres unmarked) | vaccinia virus | viral replication |  | HEL |  |  | > 230 nM |
| Nc1nc(Nc2ccc(Cl)cc2)nn1S(=O)(=O)c1ccc2ccccc2c1 | Japanese encephalitis virus | viral replication |  | Vero 76 | SA-14 |  | > 7900 nM |
| COc1cccc(NC(=S)NNC(=O)c2ccccn2)n1 | MERS-CoV | viral replication |  | Vero |  | 24 h | 730 nM |
| O=S(=O)(O)c1cccc(-c2c3nc(c(-c4cccc(S(=O)(=O)O)c4Cl)c4ccc([nH]4)c(-c4cccc(S(=O)(=O)O)c4Cl)c4nc(c(-c5cccc(S(=O)(=O)O)c5Cl)c5ccc2[nH]5)C=C4)C=C3)c1Cl | vaccinia virus | extracellular enveloped virus |  | CV-1 | IHD-J |  | 0.7 ± 0.1 µg/mL |

| SMILES | organism | effect on | method | cell line | strain | time | EC50 |
| --- | --- | --- | --- | --- | --- | --- | --- |
| Cc1nc(N2CCC(N(C)c3cc(C(=O)NCCN4CCCC4)cnn3)CC2)nc(C)c1CC(C)C | SARS coronavirus | viral replication |  |  |  |  | 640 nM |
| CC(C)C1=CC2=CC[C@@H]3[C@](C)(CCC[C@@]3(C)C(=O)OCC#CCN3CCCC3)[C@H]2CC1 | SARS-CoV-2 pseudovirus | viral replication |  |  |  |  | 11000 nM |
| CCOC(=O)C1(Cc2ccccc2)Oc2cc(F)ccc2N(Cc2ccccc2)C1=O (centres unmarked) | Xanthomonas oryzae | microbial growth |  |  |  |  | > 128 µg/mL |
| Cc1cc(-c2cnc3c(c2)c(O)c(-c2ccccc2)c(=O)n3O)ccc1F | Vaccinia virus | viral replication |  | HFF |  | 24 h | 1600 ± 100 nM |
| C=CCN1C(=O)C(CC=C)(C(=O)OCC)Oc2cc(F)ccc21 (centres unmarked) | Xanthomonas oryzae pv. oryzicola | bacterial growth |  |  |  |  | > 128 µg/mL |
| O=c1cc(-c2ccccc2)oc2c(Br)c(O)c(O)c(O)c12 | Chikungunya virus | viral replication | plaque | Vero |  | 72 h | 490 ± 110 nM |
| CCC(NC(=O)NNS(=O)(=O)c1ccc(C)cc1)(C(F)(F)F)C(F)(F)F | Mammarenavirus lassaense | viral replication |  | Vero |  |  | > 20000 nM |
| CO/C1=C\C(C)=C\[C@@H](C)[C@@H](O)[C@@H](C)C/C(C)=C/C=C/[C@H](OC)[C@@H]([C@@H](C)[C@@H](O)[C@H](C)C(=O)/C=C/[C@H](C)[C@H](O)C(C)C)OC1=O | SARS-CoV-2 Omicron BA.1 | viral replication | dsRNA staining | Calu-3 |  |  | 67.3 nM |
| O=c1ccn(C2OC(F)(CO)C(O)C2O)c(=O)[nH]1 (centres unmarked) | Lassa virus |  |  | Huh-7 |  |  | 1470 ± 1030 nM |
| CCCC1(CN2c3ccccc3Sc3ccccc32)CCN(CC)C1 (centres unmarked) | SARS coronavirus |  |  | Vero 76 | Urbani |  | 10800 ± 6700 nM |
| O=C(O)c1cn2c(c(O)c1=O)C(=O)N(Cc1ccc(F)cc1F)C[C@@H]2C(c1ccccc1)c1ccccc1 | Mammarenavirus choriomeningitidis | viral replication |  | KB |  |  | 6.2 nM |
| C#CCN1C(=O)C(CC#C)(C(=O)OCC)Oc2ccccc21 (centres unmarked) | Xanthomonas oryzae | microbial growth |  |  |  |  | > 128 µg/mL |
| COc1cc(-c2oc3cc(O[C@@H]4O[C@H](CO)[C@@H](O)[C@H](O)[C@H]4O)cc(O)c3c(=O)c2O[C@@H]2O[C@H](CO[C@@H]3O[C@@H](C)[C@H](OC(C)=O)[C@@H](O)[C@H]3OC(C)=O)[C@@H](O)[C@H](O)[C@H]2O)ccc1O | Influenza A virus | viral replication |  | MDCK | A/Tern/South Africa/1/61(H5N3) |  | 218400 ± 790 nM |
| CSCC[C@@H](C=O)NC(=O)[C@H](CC(C)C)NC(=O)[C@H](CC(C)C)NC(C)=O | SARS coronavirus | viral replication |  | Vero 76 |  | 96 h | 5580 ± 740 nM |
| COc1cc(-c2oc3cc(O[C@@H]4O[C@@H](C)[C@H](O)[C@@H](O)[C@H]4O)cc(O)c3c(=O)c2O[C@@H]2O[C@H](CO[C@@H]3O[C@@H](C)[C@H](O)[C@@H](O)[C@H]3O)[C@@H](O)[C@H](OC(C)=O)[C@H]2O)ccc1O | Influenza A virus | viral replication |  | MDCK | A/Tern/South Africa/1/61(H5N3) |  | 1300 ± 25 nM |
| CC(C)Oc1ccc(-n2cnc3cc(/C=C\c4ccc(C(C)(C)O)cc4)ccc32)cc1 | Lassa virus |  |  | Huh-7 |  |  | 6620 ± 2300 nM |

Excerpt of the above:
| SMILES | organism | effect on | method | cell line | strain | time | EC50 |
| --- | --- | --- | --- | --- | --- | --- | --- |
| CC(=O)OC1(C)CC(C=C(C)CCC=C(C)C)OC2(C=C(CO)C3CC(=O)C(C)=CC3O2)C1 (centres unmarked) | SARS-CoV-2 Omicron BA.5 | viral replication | dsRNA staining | Calu-3 |  |  | 700 nM |
| O=S(=O)(O)c1cccc(-c2c3nc(c(-c4cccc(S(=O)(=O)O)c4F)c4ccc([nH]4)c(-c4cccc(S(=O)(=O)O)c4F)c4nc(c(-c5cccc(S(=O)(=O)O)c5F)c5ccc2[nH]5)C=C4)C=C3)c1F | vaccinia virus | viral replication |  | CV-1 | Western Reserve |  | 1.3 ± 0.3 µg/mL |
